{"data": "Experimental data pooled from the literature", "cell line": "4T1", "note": "Lines come from different studies, so protocols differ. ± gives the spread as reported."}
{"SMILES": "CC(=O)O[C@H]1C[C@@H]2[C@@]3(C)C=CC(=O)C(C)(C)[C@H]3C[C@@H](O)[C@@]2(C)C2=CC[C@@H](c3ccoc3)[C@@]21C", "assay": "cell growth or viability, MTT", "conditions": "48 h", "endpoint": "IC50", "value": "105 µM"}
{"SMILES": "CSc1ccc(-c2noc(-c3cccs3)c2C(F)(F)F)cc1", "assay": "cell growth or viability, MTT", "conditions": "48 h", "endpoint": "IC50", "value": "28.6 µM"}
{"SMILES": "COc1cccc(Cc2c[nH]c3ncccc23)c1", "assay": "cell growth or viability, MTT", "conditions": "10 µM, 72 h", "endpoint": "inhibition", "value": "11%"}
{"SMILES": "CC(=O)Oc1c2c(c3ccc4c(c3c1OC(C)=O)C=CC(=O)C4(C)C)OC[C@@H]2C", "conditions": "concentration not given, 24 h", "endpoint": "GSSG/GSH ratio", "value": "increased"}
{"SMILES": "C[C@@H](C[C@@H](O)[C@H](O)C(C)(C)O)[C@@H]1CC[C@]2(C)C3=CC[C@H]4C(C)(C)C(=O)CC[C@]4(C)[C@H]3CC[C@@]12C", "assay": "cell growth or viability, MTT", "conditions": "48 h", "endpoint": "IC50", "value": "8 µM"}
{"SMILES": "FC(F)(F)c1cccc(Cc2c[nH]c3ncc(C(F)(F)F)cc23)c1", "assay": "cell growth or viability, MTT", "conditions": "10 µM, 72 h", "endpoint": "inhibition", "value": "26%"}
{"SMILES": "Clc1ccc2ccc3[n+](c2c1)[Ir-3]12([c]4ccccc4-3)([c]3ccccc3-c3ccc4ccc(Cl)cc4[n+]31)[n+]1ccccc1-c1cccc[n+]12.F[P-](F)(F)(F)(F)F", "assay": "cell migration, Transwell", "conditions": "0.3 µM, 24 h", "endpoint": "inhibition", "value": "73%"}
{"SMILES": "COc1cccc(Cc2c[nH]c3ncc(C(F)(F)F)cc23)c1", "assay": "cell growth or viability, MTT", "conditions": "10 µM, 72 h", "endpoint": "inhibition", "value": "18%"}
{"SMILES": "Nc1ccccc1NC(=O)c1cnccn1", "assay": "cell growth or viability, MTT", "conditions": "48 h", "endpoint": "IC50", "value": "60 µM"}
{"SMILES": "CCNS(=O)(=O)c1ccc(COc2ccc3nc4ccc(=O)cc-4oc3c2)cc1", "assay": "DDR2 signalling, Western blot", "conditions": "1 µM, 6 h, together with: collagen I 2 mg/mL", "endpoint": "SNAIL1 protein stabilization", "value": "inhibited"}
{"SMILES": "CC(=O)Nc1ccc(OC(=O)CCC(=O)[O][Pt-2]23([O]C(=O)CCC(=O)Oc4ccc(NC(C)=O)cc4)([NH2+][C@@H]4CCCC[C@H]4[NH2+]2)[O]C(=O)C(=O)[O]3)cc1", "assay": "Western blot, item: NLRP3", "conditions": "2 µM, 24 h", "scale": "baseline: untreated control, upregulation", "endpoint": "protein level", "value": "~1.7 fold"}
{"SMILES": "COc1cc(Cc2c[nH]c3ncc(C(F)(F)F)cc23)cc(OC)c1", "assay": "cell migration", "conditions": "3.3 µM, 24 h", "endpoint": "inhibition", "value": "36.1%"}
{"SMILES": "FC(F)(F)c1c(-c2ccc(Br)cc2)noc1-c1cccs1", "assay": "cell growth or viability, MTT", "conditions": "48 h", "endpoint": "IC50", "value": "31.7 µM"}
{"SMILES": "Cn1cncn1.[Ru+2].c1cc(-c2ccc3ccccc3n2)nc(-c2ccc3ccccc3n2)c1.c1ccc2cc3nc4c5cccnc5c5ncccc5c4nc3cc2c1", "assay": "cell viability, MTT", "conditions": "4 h, dark", "endpoint": "EC50", "value": "30 ± 5 µM"}
{"note": "Excerpt of the above:"}
{"SMILES": "COc1cc(Cc2c[nH]c3ncc(C(F)(F)F)cc23)cc(OC)c1", "assay": "cell migration", "conditions": "3.3 µM, 24 h", "endpoint": "inhibition", "value": "36.1%"}
{"SMILES": "Cn1cncn1.[Ru+2].c1cc(-c2ccc3ccccc3n2)nc(-c2ccc3ccccc3n2)c1.c1ccc2cc3nc4c5cccnc5c5ncccc5c4nc3cc2c1", "assay": "cell viability, MTT", "conditions": "4 h, dark", "endpoint": "EC50", "value": "30 ± 5 µM"}
